{"data": "Measurements of several laboratories", "ESR1": "Estrogen receptor (ESR1, Homo sapiens, UniProt P03372)", "Transcriptional regulator ComR": "Transcriptional regulator ComR (Streptococcus mutans serotype c, UniProt Q8DWI6)", "P2RY4": "P2Y purinoceptor 4 (P2RY4, Homo sapiens, UniProt P51582)", "SSTR2": "Somatostatin receptor type 2 (SSTR2, Homo sapiens, UniProt P30874)", "P2RY14": "P2Y purinoceptor 14 (P2RY14, Homo sapiens, UniProt Q15391)", "P2Y purinoceptor 1": "P2Y purinoceptor 1 (Meleagris gallopavo, UniProt P49652)", "note": "Protocols differ between the studies behind these lines. Numbers after ± are the reported error.", "UniProt P51582, sequence (whole entry, looked up)": "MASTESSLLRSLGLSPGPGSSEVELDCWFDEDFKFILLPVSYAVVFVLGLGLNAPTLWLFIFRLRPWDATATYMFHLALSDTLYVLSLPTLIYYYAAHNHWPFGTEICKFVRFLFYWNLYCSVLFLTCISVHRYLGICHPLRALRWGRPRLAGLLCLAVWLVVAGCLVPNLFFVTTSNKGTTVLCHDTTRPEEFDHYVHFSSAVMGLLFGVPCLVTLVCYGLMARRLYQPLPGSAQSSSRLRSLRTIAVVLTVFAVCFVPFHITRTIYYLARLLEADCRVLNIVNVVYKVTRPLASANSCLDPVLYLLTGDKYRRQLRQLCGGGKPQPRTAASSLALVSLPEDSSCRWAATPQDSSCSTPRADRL", "UniProt P03372, sequence (whole entry, looked up)": "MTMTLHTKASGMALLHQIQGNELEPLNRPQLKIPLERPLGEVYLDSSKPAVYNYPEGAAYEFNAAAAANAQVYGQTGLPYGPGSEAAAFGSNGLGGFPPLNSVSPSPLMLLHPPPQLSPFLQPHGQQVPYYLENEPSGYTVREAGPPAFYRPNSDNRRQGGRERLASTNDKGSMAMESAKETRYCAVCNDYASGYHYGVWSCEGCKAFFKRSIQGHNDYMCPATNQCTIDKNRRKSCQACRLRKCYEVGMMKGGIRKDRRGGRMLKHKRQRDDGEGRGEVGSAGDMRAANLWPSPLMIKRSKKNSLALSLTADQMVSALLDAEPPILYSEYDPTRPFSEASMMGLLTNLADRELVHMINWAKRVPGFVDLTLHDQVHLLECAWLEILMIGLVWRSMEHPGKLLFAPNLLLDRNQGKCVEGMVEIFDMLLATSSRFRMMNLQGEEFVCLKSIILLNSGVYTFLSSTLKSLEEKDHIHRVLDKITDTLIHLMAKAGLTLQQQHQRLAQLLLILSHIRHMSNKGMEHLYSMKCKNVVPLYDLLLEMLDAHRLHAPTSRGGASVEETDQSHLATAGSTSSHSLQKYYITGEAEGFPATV", "UniProt Q15391, sequence (whole entry, looked up)": "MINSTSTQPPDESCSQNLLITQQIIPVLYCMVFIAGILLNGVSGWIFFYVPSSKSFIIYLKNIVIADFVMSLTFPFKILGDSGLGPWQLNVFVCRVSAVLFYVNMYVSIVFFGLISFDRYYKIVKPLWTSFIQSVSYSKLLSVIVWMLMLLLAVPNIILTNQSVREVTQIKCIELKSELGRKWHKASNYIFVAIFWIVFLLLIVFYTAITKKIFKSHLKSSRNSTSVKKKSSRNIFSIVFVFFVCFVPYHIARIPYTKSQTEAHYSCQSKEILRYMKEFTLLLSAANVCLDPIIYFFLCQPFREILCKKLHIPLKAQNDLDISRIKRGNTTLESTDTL", "UniProt P49652, sequence (whole entry, looked up)": "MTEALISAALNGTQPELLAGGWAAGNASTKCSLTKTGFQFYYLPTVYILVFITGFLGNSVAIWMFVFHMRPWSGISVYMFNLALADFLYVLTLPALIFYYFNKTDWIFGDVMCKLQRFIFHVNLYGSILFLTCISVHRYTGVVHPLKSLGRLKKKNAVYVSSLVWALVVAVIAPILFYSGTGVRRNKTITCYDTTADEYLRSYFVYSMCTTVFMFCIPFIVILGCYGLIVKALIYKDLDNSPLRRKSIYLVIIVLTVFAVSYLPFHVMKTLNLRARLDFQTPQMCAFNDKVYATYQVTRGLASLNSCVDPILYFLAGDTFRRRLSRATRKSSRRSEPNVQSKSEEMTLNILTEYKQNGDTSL", "UniProt P30874, sequence (whole entry, looked up)": "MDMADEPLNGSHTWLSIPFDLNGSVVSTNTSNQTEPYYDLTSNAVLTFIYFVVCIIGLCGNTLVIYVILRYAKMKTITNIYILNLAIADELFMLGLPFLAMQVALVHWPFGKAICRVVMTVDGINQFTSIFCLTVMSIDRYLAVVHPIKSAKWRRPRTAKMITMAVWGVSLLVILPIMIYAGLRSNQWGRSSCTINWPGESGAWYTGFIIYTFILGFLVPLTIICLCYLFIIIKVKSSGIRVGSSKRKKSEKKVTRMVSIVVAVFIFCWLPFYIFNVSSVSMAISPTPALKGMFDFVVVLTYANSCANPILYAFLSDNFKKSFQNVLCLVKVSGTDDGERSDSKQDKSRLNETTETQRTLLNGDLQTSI", "UniProt P25084, sequence (whole entry, looked up)": "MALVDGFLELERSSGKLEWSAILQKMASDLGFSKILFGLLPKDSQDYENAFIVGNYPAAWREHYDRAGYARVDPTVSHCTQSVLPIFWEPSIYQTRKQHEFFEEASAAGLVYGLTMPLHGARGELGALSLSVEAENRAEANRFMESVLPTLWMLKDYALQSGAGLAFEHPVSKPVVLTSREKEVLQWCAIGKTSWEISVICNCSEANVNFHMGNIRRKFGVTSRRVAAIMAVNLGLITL", "UniProt P07510, sequence (whole entry, looked up)": "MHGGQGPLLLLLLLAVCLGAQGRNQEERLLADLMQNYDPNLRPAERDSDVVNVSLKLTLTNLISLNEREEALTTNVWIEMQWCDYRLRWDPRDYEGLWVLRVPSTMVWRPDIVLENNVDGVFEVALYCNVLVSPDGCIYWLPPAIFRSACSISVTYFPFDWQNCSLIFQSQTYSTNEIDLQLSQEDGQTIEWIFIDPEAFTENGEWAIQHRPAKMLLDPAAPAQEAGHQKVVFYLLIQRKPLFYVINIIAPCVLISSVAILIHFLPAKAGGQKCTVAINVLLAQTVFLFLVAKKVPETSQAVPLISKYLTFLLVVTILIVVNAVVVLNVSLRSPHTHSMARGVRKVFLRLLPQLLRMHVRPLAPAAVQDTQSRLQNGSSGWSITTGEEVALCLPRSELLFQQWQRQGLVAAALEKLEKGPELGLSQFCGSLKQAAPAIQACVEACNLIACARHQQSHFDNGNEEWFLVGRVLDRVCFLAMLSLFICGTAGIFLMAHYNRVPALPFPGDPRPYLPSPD", "UniProt P18507, sequence (whole entry, looked up)": "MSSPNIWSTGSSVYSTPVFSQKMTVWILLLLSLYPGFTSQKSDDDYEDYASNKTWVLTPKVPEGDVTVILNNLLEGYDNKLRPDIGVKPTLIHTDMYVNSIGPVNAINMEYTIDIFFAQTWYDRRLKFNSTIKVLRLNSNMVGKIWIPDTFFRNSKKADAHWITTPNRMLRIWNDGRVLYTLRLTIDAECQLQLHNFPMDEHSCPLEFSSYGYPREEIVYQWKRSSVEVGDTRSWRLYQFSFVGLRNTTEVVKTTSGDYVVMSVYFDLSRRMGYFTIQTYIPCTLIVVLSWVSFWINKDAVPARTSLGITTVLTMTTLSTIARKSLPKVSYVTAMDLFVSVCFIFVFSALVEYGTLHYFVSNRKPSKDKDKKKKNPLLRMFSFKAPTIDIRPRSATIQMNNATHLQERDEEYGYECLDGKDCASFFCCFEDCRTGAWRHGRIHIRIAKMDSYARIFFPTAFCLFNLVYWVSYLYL", "UniProt P34972, sequence (whole entry, unmodified, looked up)": "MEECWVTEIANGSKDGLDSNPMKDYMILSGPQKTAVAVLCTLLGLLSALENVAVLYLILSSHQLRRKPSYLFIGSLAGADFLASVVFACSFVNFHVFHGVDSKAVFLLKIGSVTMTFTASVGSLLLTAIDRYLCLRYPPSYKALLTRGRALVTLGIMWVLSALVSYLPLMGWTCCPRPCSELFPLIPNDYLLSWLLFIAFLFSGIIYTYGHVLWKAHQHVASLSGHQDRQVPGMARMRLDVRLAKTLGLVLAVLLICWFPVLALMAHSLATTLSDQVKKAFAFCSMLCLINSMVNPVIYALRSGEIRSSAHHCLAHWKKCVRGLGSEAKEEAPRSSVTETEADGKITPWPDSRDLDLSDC", "UniProt P02708, sequence (whole entry, looked up)": "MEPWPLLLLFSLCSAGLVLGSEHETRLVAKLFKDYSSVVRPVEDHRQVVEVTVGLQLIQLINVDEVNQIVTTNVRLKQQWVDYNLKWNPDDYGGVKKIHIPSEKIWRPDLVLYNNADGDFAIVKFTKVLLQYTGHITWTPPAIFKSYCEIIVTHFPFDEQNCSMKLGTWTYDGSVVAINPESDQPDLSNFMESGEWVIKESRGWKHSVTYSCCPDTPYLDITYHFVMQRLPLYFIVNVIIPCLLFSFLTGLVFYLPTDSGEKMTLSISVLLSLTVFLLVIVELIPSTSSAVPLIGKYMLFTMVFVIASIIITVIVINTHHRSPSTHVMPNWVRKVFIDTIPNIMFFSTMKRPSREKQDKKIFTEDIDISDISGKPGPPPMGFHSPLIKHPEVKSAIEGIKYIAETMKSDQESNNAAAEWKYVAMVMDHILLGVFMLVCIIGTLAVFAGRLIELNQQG", "UniProt Q07001, sequence (whole entry, looked up)": "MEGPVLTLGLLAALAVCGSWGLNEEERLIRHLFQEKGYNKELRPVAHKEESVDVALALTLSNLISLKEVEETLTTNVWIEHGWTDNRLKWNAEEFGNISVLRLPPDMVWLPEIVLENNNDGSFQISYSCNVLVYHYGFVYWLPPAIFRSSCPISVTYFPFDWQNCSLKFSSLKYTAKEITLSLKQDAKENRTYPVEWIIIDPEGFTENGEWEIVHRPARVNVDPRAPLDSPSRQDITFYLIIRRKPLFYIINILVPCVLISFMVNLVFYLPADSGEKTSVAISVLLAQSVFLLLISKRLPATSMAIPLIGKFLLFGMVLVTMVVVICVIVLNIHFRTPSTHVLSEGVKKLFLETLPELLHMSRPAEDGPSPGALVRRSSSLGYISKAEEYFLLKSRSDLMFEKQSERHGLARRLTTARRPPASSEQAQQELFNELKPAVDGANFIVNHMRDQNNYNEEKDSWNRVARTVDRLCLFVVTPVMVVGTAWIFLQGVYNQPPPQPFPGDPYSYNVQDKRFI"}
{"Substance": "OC(c1ccc(Cl)cc1)(c1ccc(Cl)cc1)C(Cl)(Cl)Cl", "target": "ESR1", "assay": "reporter gene, agonist, luciferase", "EC50 [nM]": 1700}
{"Substance": "CCCCCCCC(=O)C(O)CC (stereo not drawn)", "target": "cqsS (Vibrio campbellii, UniProt A7N6S2)", "assay": "bioluminescence, agonist", "system": "Vibrio harveyi, wild type", "EC50 [nM]": "5290 ± 967"}
{"Substance": "CC(C)C[C@H](NC(=O)[C@H](CO)NC(=O)[C@H](Cc1c[nH]c2ccccc12)NC(=O)[C@H](Cc1c[nH]c2ccccc12)NC(=O)[C@H](C)NC(=O)[C@H](CC(C)C)NC(=O)CN)C(=O)O", "target": "Transcriptional regulator ComR", "system": "Streptococcus mutans", "EC50 [nM]": 1000}
{"Substance": "Clc1ccc(Cl)c(-c2c(Cl)ccc(Cl)c2Cl)c1Cl (racemic)", "target": "ESR1", "assay": "reporter gene, agonist, luciferase", "EC50 [nM]": 6800}
{"Substance": "[BH3-][P+](O)(OP(=O)(O)OC[C@H]1O[C@@H](n2ccc(=O)[nH]c2=O)[C@H](O)[C@@H]1O)OP(=O)(O)OP(=O)(O)OC[C@H]1O[C@@H](n2cnc3c(N)ncnc32)[C@H](O)[C@@H]1O (stereo partly drawn)", "target": "P2RY4", "assay": "intracellular calcium rise, agonist", "system": "1321N1 expressing human P2Y4", "conditions": "37 °C", "EC50 [nM]": "> 100000"}
{"Substance": "C[C@@]1(O)CC[C@@]2(C)[C@@H](CC[C@@H]3[C@@H]2CC[C@]2(C)[C@@H](c4cc(CO)on4)CC[C@@H]32)C1", "target": "GABA A receptor alpha-2/beta-2/gamma-2 (Homo sapiens, UniProt P18507+P47869+P47870)", "assay": "GABA current potentiation, positive modulator, two-electrode voltage clamp", "system": "Xenopus laevis oocytes", "conditions": "30 s preincubation, together with: GABA EC10", "EC50 [nM]": "1410 ± 470"}
{"Substance": "autoinducing peptide I", "target": "AgrC-I sensor Kin mutant (Staphylococcus aureus)", "assay": "reporter gene, agonist", "system": "Staphylococcus aureus P3-blaZ reporter, Staphylococcus aureus", "EC50 [nM]": "> 10000"}
{"Substance": "CC(C)[C@H](NC(=O)[C@@H]1CSSC[C@H](NC(=O)[C@@H](N)Cc2c[nH]cn2)C(=O)N[C@@H](Cc2ccccc2)C(=O)N[C@H](Cc2c[nH]c3ccccc23)C(=O)N[C@@H](CCCCN)C(=O)N[C@@H]([C@@H](C)O)C(=O)N1)C(=O)O", "target": "SSTR2", "EC50 [nM]": 5}
{"Substance": "O=C(c1cc2cccnc2n1-c1ccc(Cl)c(Cl)c1)N1CC(F)(F)C1", "target": "PDE4B (Homo sapiens, UniProt Q07343)", "assay": "forskolin-induced cAMP, CRE luciferase reporter", "system": "HEK293 expressing PDE4B", "conditions": "together with: forskolin 10 µM", "EC50 [nM]": 500}
{"Substance": "BP(=O)(OC[C@H]1O[C@@H](n2ccc(=O)[nH]c2=O)[C@H](O)[C@@H]1O)OP(=O)(O)OP(=O)(O)OP(=O)(O)OC[C@H]1O[C@@H](n2ccc(=O)[nH]c2=O)[C@H](O)[C@@H]1O (stereo partly drawn)", "target": "P2Y purinoceptor 2 (P2RY2, Homo sapiens, UniProt P41231)", "assay": "calcium signal, agonist, fluorescence", "EC50 [nM]": 24600}
{"Substance": "CCCCC/C=C\\C/C=C\\C/C=C\\C/C=C\\CCCC(=O)OC(CO)CO", "target": "CNR2 (Homo sapiens, UniProt P34972, Q63R)", "assay": "β-arrestin 2 recruitment, agonist, BRET", "system": "HEK293 coexpressing GRK2", "EC50 [nM]": 1200}
{"Substance": "COc1ccc2c(c1)c(C1=C(c3c[nH]c4ccccc34)C(=O)NC1=O)cn2CCCN(C)C", "target": "Mothers against decapentaplegic homolog 4, with SMAD3 (Homo sapiens, UniProt Q13485, R361H)", "assay": "SMAD3 binding to SMAD4 R361H, GST pull-down", "EC50 [nM]": "8900 ± 700"}
{"Substance": "Clc1ccc(C2CC3CCC2N3)cn1 (racemic)", "target": "Acetylcholine receptor; alpha1/beta1/delta/gamma (Homo sapiens, UniProt P02708+P07510+P11230+Q07001)", "assay": "calcium influx, agonist", "system": "TE671 expressing human α1β1γδ AChR", "EC50 [nM]": "260 ± 40"}
{"Substance": "O=C(O)[C@H]1O[C@H](OP(=O)(O)OP(=O)(O)OC[C@H]2O[C@@H](n3ccc(=O)[nH]c3=O)[C@H](O)[C@@H]2O)[C@H](O)[C@@H](O)[C@@H]1O", "target": "P2RY14", "assay": "cAMP inhibition, agonist", "system": "CHO expressing human P2Y14", "conditions": "15 min, 37 °C, together with: forskolin", "EC50 [nM]": 47}
{"Substance": "O=C1C[C@@H](c2ccc(O)cc2)Oc2cc(O)ccc21", "target": "ESR1", "assay": "reporter gene, agonist", "system": "Hs578T ERα luciferase", "conditions": "24 h, together with: 50 ng/mL doxycycline", "EC50 [nM]": 100}
{"Substance": "CC(C)C[C@H](NC(=O)[C@H](CO)NC(=O)[C@H](Cc1c[nH]c2ccccc12)NC(=O)[C@H](Cc1c[nH]c2ccccc12)NC(=O)[C@H](CC(=O)O)NC(=O)[C@@H](N)CC(C)C)C(=O)O", "target": "Transcriptional regulator ComR", "system": "Streptococcus mutans", "EC50 [nM]": 400}
{"Substance": "CO/N=c1/ccn([C@@H]2O[C@H](COP(=O)(O)OP(=O)(O)OP(=O)(O)Oc3ccccc3)[C@@H](O)[C@H]2O)c(=O)[nH]1", "target": "P2RY4", "assay": "PLC activation, agonist", "system": "1321N1, transfected", "EC50 [nM]": "> 10000"}
{"Substance": "CC(=O)NCCNC(=O)C1OC(OP(=O)(O)OP(=O)(O)OCC2OC(n3ccc(=O)[nH]c3=O)C(O)C2O)C(O)C(O)C1O (stereo not drawn)", "target": "P2RY14", "assay": "cAMP accumulation inhibition, agonist", "system": "HEK293 expressing P2RY14", "conditions": "dose as dendrimer conjugate, together with: forskolin 30 µM", "EC50 [nM]": "496 ± 67"}
{"Substance": "[BH3-][P+](O)(OP(=O)(O)OC[C@H]1O[C@@H](n2cnc3c(N)ncnc32)[C@H](O)[C@@H]1O)OP(=O)(O)OP(=O)(O)OC[C@H]1O[C@@H](n2cnc3c(N)ncnc32)[C@H](O)[C@@H]1O (stereo partly drawn)", "target": "P2RY4", "assay": "intracellular calcium rise, agonist", "system": "1321N1 expressing human P2Y4", "conditions": "37 °C", "EC50 [nM]": "> 100000"}
{"Substance": "meta-bromo-thiolactone", "target": "lasR (Pseudomonas aeruginosa, UniProt P25084)", "assay": "reporter gene, agonist, luminescence", "system": "Escherichia coli plasB-lux", "EC50 [nM]": 4}
{"Substance": "CC(C)C[C@H](NC(=O)[C@H](CCCNC(=N)N)NC(=O)[C@H](CC(C)C)NC(=O)[C@H](CO)NC(=O)[C@@H]1CCCN1C(=O)[C@H](CO)NC(=O)[C@H](CCCNC(=N)N)NC(=O)[C@H](CCC(N)=O)NC(=O)[C@H](C)N)C(=O)N[C@@H](CCCNC(=N)N)C(=O)N[C@@H](Cc1ccccc1)C(N)=O", "target": "Short neuropeptide F receptor (Drosophila melanogaster, UniProt Q9VW75)", "assay": "calcium mobilization, agonist", "system": "HEK-293T transfected, Gα16", "conditions": "37 °C", "EC50 [nM]": "2.04 ± 1.48"}
{"Substance": "BP(=O)(OC[C@H]1O[C@@H](n2cnc3c(N)ncnc32)[C@H](O)[C@@H]1O)OP(=O)(O)OP(=O)(O)OP(=O)(O)OC[C@H]1O[C@@H](n2cnc3c(N)ncnc32)[C@H](O)[C@@H]1O (stereo partly drawn)", "target": "P2Y purinoceptor 1", "assay": "calcium signal, agonist, fluorescence", "EC50 [nM]": 6900}
{"Substance": "CC(C)C[C@H](NC(=O)[C@H](CO)NC(=O)[C@H](Cc1c[nH]c2ccccc12)NC(=O)[C@H](Cc1c[nH]c2ccccc12)NC(=O)[C@H](CC(=O)O)NC(=O)[C@H](CC(C)C)NC(=O)[C@H](C)N)C(=O)O", "target": "Transcriptional regulator ComR", "system": "Streptococcus mutans", "EC50 [nM]": 670}
{"Substance": "[BH3-][P+](O)(OP(=O)(O)OC[C@H]1O[C@@H](n2cnc3c(N)ncnc32)[C@H](O)[C@@H]1O)OP(=O)(O)OP(=O)(O)OC[C@H]1O[C@@H](n2ccc(=O)[nH]c2=O)[C@H](O)[C@@H]1O (stereo partly drawn)", "target": "P2RY4", "assay": "intracellular calcium rise, agonist", "system": "1321N1 expressing human P2Y4", "conditions": "37 °C", "EC50 [nM]": "> 100000"}
{"Substance": "Nc1ncnc2c1ncn2[C@@H]1O[C@H](COP(=O)(O)OP(=O)(O)OP(=O)(O)O)[C@@H](O)[C@H]1O", "target": "PRKACA (Homo sapiens, UniProt P17612)", "assay": "binding of FAM-SMO peptide, activator, fluorescence polarization", "conditions": "pH 7", "EC50 [nM]": 19200}
{"Substance": "CCCN(C/C=C/I)C1CCc2ccc(O)cc2C1 (stereo not drawn)", "target": "ADRA2A (Homo sapiens, UniProt P08913)", "assay": "G protein activation, agonist, BRET, measured: Gαi3", "system": "HEK293T, transfected", "conditions": "Emax below 50%", "EC50 [nM]": "60 ± 20"}
{"Substance": "BP(=O)(OC[C@H]1O[C@@H](n2ccc(=O)[nH]c2=O)[C@H](O)[C@@H]1O)OP(=O)(O)OP(=O)(O)OC[C@H]1O[C@@H](n2ccc(=O)[nH]c2=O)[C@H](O)[C@@H]1O (stereo partly drawn)", "target": "P2Y purinoceptor 1", "assay": "intracellular Ca2+ elevation, agonist, fura-2", "system": "1321N1 cells expressing turkey P2Y1", "conditions": "37 °C", "EC50 [nM]": "> 100000"}
{"Substance": "CC(C)[C@H](NC(=O)[C@@H]1CSSC[C@H](NC(=O)[C@H](CC(N)=O)NC(=O)[C@@H](N)CCCCN)C(=O)N[C@@H](Cc2ccccc2)C(=O)N[C@H](Cc2c[nH]c3ccccc23)C(=O)N[C@@H](CCCCN)C(=O)N[C@@H]([C@@H](C)O)C(=O)N1)C(=O)O", "target": "SSTR2", "EC50 [nM]": 41}
{"Substance": "[BH3-][P+](O)(OP(=O)(O)OC[C@H]1O[C@@H](n2ccc(=O)[nH]c2=O)[C@H](O)[C@@H]1O)OP(=O)(O)OP(=O)(O)OC[C@H]1O[C@@H](n2ccc(=O)[nH]c2=O)[C@H](O)[C@@H]1O (stereo partly drawn)", "target": "P2RY4", "assay": "intracellular calcium rise, agonist", "system": "1321N1 expressing human P2Y4", "conditions": "37 °C", "EC50 [nM]": "> 100000"}
{"Substance": "CC(C)C[C@H](NC(=O)[C@H](C)NC(=O)[C@H](Cc1c[nH]c2ccccc12)NC(=O)[C@H](Cc1c[nH]c2ccccc12)NC(=O)[C@H](CC(=O)O)NC(=O)[C@H](CC(C)C)NC(=O)CN)C(=O)O", "target": "Transcriptional regulator ComR", "system": "Streptococcus mutans", "EC50 [nM]": 260}
{"note": "Repeated from above:"}
{"Substance": "CC(C)C[C@H](NC(=O)[C@H](CO)NC(=O)[C@H](Cc1c[nH]c2ccccc12)NC(=O)[C@H](Cc1c[nH]c2ccccc12)NC(=O)[C@H](CC(=O)O)NC(=O)[C@H](CC(C)C)NC(=O)[C@H](C)N)C(=O)O", "target": "Transcriptional regulator ComR", "system": "Streptococcus mutans", "EC50 [nM]": 670}
{"Substance": "[BH3-][P+](O)(OP(=O)(O)OC[C@H]1O[C@@H](n2cnc3c(N)ncnc32)[C@H](O)[C@@H]1O)OP(=O)(O)OP(=O)(O)OC[C@H]1O[C@@H](n2ccc(=O)[nH]c2=O)[C@H](O)[C@@H]1O (stereo partly drawn)", "target": "P2RY4", "assay": "intracellular calcium rise, agonist", "system": "1321N1 expressing human P2Y4", "conditions": "37 °C", "EC50 [nM]": "> 100000"}
{"Substance": "Nc1ncnc2c1ncn2[C@@H]1O[C@H](COP(=O)(O)OP(=O)(O)OP(=O)(O)O)[C@@H](O)[C@H]1O", "target": "PRKACA (Homo sapiens, UniProt P17612)", "assay": "binding of FAM-SMO peptide, activator, fluorescence polarization", "conditions": "pH 7", "EC50 [nM]": 19200}
